# Results of several laboratories.
# Parts stem from different laboratories: compare values within a part only. Substitutions count along the parent as printed.

# Sample 1
# Target: CCNB1, cyclin fold, Cln2 fusion (human)
# Method: yeast growth competition, sequencing
# Sample: yeast
# Notes: strong parent motif
# Relative to: not given
# Reading: higher = stronger binding
# Starting sequence: E2F1 docking peptide (human); PPVKRRLDFETDH
Substitution,normalised enrichment score
E10N,5.17
R5V,2.73
T11K,4.62
R6Y,3.01
E10L,3.93
L7T,0.058

# Sample 2
# Target: ABI1, truncated, D143A, DHFR fusion (Arabidopsis thaliana)
# Method: DHFR PCA, deep sequencing
# Sample: yeast
# Notes: methotrexate growth selection, single substitutions
# With: (+)-ABA 0.0091 µM
# Relative to: wild-type fitted maximum
# Reading: higher = stronger binding
# Starting sequence: PYL1, truncated, DHFR fusion (Arabidopsis thaliana); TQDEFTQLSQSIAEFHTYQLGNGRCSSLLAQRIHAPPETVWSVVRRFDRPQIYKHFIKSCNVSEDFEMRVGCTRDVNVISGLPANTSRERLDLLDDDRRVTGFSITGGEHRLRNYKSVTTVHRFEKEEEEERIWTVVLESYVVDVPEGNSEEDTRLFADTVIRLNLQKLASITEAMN; partner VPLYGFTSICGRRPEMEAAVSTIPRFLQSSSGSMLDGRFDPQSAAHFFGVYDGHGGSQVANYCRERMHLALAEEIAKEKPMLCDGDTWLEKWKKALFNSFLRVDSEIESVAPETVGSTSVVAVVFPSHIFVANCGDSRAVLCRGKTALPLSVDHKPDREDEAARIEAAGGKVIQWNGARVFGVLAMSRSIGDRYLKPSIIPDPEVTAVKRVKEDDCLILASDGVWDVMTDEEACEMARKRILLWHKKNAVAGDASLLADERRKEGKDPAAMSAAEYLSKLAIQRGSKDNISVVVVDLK
Substitution,relative binding score
S27Q,-0.245%
S9T,28.4%
S171K,32.8%
R155W,-4.05%
C60S,-1.09%
E130Y,1.96%

# Sample 3
# Target: Probable WRKY transcription factor 11, DNA-binding domain (WRKY11, Arabidopsis thaliana, UniProt Q9SV15, residues 228-325)
# Method: DNA-protein interaction ELISA
# Molecule type: double-stranded DNA, one strand shown
# Sample: in vitro, bacterial lysate
# Tested at: not given
# Notes: whole dsDNA probe, crude lysate protein
# Relative to: highest signal in screen
# Reading: higher = stronger binding
# Construct (chain): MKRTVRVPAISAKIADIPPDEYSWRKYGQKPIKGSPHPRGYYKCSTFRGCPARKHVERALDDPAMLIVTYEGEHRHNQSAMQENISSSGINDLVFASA
Oligonucleotide,relative absorbance
AAAAAAGTCATTATAACCCAAACTCTAAAA,12.1 % of maximum
AAAAAATGGTCGATCCGCATGCAGTTAAAA,13 % of maximum
AAAAAACCCTAACGAATGCTTTTCGGAAAA,17.3 % of maximum
AAAAAACATCGCTGTCGTTGACGTTGAAAA,90.8 % of maximum
AAAAAAACAGCTCGGTGCCACTGTGGAAAA,16.7 % of maximum

# Mixed results
Molecule,target,test,test system,setting,scale,measurement,result
"PhoQ, residues 284 288 289 292 302 303 AGCYAI","PhoP, residues 12 14 15 18 19 LYFRQ (Escherichia coli, UniProt P23836)","Sort-seq, item: YFP reporter",E. coli,"PhoQ-PhoP variant library, with: 10 µM Mg2+","relative to: high Mg2+ state, higher = stronger signaling",fold induction,13.6

# Some of these lines once more (sample 2):
Substitution,relative binding score
R155W,-4.05%
S9T,28.4%
